Results from different studies.
Each line is one published result; not all experiments were run side by side. Values joined by “and” are separate records of one study, mostly repeats; a detail may differ. ± gives the spread as reported.
CASP7: Caspase-7 (CASP7, Homo sapiens, UniProt P55210)
Sequence of UniProt P55210 (whole entry, looked up): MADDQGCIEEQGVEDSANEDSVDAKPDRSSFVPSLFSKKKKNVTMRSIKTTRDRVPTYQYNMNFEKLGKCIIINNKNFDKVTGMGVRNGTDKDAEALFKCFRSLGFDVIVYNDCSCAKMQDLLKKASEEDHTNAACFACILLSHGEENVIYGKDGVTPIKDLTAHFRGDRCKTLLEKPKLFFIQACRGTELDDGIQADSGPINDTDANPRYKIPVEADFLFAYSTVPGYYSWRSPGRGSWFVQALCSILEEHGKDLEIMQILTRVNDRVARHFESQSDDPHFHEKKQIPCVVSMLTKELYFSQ
T1: G-quadruplex DNA, G-quadruplex (Homo sapiens); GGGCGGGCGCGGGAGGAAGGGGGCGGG
Sequence of UniProt Q9NQR4 (whole entry, looked up): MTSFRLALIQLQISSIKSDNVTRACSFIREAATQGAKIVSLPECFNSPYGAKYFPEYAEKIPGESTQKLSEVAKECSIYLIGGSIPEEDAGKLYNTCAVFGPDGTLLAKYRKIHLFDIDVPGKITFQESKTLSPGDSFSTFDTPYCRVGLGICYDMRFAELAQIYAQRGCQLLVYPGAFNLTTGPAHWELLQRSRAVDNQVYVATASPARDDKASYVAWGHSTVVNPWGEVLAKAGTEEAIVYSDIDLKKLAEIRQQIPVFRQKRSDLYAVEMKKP
Sequence of UniProt P00921 (whole entry, looked up): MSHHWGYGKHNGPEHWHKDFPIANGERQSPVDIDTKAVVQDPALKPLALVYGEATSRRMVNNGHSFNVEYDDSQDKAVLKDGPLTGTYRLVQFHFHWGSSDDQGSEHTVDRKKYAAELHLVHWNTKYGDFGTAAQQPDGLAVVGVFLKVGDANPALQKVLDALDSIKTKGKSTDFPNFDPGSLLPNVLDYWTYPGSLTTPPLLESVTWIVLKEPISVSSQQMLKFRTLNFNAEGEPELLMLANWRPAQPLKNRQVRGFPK
Sequence of UniProt Q15165 (whole entry, looked up): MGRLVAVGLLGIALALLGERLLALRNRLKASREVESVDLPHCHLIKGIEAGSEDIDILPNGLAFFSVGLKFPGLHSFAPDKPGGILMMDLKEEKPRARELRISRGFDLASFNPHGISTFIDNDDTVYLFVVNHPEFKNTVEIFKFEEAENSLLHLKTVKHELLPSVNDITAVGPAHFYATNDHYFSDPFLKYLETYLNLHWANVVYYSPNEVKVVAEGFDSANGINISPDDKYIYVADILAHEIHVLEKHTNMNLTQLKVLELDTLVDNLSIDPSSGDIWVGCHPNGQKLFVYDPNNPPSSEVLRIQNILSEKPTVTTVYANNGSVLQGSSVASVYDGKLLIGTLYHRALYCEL
Sequence of UniProt Q15021 (whole entry, looked up): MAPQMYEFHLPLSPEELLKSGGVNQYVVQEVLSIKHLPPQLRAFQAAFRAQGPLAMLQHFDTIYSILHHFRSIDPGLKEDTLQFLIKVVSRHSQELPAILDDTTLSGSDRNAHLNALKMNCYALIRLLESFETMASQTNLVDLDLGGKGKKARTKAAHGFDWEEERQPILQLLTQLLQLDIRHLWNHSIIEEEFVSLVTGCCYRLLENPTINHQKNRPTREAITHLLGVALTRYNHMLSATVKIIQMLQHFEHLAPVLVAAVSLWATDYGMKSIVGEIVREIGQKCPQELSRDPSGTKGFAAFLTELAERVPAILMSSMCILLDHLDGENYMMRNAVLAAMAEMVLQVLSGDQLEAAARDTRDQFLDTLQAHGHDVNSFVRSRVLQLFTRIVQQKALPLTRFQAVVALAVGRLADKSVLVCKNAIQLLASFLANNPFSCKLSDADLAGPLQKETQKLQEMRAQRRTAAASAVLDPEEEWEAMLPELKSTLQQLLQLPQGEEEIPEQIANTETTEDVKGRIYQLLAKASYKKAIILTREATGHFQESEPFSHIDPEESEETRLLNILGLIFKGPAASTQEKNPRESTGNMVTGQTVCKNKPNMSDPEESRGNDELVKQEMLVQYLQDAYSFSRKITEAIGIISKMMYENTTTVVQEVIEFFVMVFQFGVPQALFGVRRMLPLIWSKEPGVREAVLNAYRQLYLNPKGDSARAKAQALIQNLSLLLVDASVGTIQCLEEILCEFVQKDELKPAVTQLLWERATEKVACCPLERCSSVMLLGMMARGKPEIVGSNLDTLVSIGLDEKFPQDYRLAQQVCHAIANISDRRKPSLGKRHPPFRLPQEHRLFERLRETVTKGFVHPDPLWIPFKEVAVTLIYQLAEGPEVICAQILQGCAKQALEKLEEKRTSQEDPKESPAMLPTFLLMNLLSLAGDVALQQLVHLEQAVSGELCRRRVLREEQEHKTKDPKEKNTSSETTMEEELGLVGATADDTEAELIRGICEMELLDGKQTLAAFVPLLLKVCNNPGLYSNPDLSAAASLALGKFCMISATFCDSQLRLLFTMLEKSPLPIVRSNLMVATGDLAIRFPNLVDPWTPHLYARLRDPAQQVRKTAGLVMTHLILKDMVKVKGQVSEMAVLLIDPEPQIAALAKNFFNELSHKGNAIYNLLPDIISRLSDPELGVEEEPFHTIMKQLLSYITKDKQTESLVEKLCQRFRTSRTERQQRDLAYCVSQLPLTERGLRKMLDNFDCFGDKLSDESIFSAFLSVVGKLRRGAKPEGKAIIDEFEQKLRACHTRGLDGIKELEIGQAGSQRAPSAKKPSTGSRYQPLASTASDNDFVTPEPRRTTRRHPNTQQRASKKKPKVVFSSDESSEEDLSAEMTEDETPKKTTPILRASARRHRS
Sequence of UniProt P34972 (whole entry, looked up): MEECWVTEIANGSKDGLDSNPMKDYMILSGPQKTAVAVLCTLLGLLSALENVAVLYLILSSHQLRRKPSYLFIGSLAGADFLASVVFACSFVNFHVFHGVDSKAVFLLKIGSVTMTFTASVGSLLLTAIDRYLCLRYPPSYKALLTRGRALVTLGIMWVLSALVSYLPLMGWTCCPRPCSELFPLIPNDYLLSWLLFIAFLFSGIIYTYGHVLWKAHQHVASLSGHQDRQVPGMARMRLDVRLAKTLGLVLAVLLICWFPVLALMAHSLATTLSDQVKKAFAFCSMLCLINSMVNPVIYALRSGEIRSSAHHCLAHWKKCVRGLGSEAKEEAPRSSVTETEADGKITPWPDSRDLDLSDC
Sequence of UniProt P35372 (whole entry, looked up): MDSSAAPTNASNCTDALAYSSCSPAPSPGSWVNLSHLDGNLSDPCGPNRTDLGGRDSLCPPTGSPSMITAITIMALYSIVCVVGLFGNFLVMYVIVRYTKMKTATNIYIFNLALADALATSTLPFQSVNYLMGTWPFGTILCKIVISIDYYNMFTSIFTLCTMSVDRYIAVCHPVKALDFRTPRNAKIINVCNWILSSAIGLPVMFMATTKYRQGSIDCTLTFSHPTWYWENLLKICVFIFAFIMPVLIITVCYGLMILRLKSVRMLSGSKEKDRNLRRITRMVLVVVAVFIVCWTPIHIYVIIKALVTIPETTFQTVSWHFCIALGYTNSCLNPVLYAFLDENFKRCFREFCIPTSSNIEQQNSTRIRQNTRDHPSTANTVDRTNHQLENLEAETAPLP
Sequence of UniProt P30958 (whole entry, looked up): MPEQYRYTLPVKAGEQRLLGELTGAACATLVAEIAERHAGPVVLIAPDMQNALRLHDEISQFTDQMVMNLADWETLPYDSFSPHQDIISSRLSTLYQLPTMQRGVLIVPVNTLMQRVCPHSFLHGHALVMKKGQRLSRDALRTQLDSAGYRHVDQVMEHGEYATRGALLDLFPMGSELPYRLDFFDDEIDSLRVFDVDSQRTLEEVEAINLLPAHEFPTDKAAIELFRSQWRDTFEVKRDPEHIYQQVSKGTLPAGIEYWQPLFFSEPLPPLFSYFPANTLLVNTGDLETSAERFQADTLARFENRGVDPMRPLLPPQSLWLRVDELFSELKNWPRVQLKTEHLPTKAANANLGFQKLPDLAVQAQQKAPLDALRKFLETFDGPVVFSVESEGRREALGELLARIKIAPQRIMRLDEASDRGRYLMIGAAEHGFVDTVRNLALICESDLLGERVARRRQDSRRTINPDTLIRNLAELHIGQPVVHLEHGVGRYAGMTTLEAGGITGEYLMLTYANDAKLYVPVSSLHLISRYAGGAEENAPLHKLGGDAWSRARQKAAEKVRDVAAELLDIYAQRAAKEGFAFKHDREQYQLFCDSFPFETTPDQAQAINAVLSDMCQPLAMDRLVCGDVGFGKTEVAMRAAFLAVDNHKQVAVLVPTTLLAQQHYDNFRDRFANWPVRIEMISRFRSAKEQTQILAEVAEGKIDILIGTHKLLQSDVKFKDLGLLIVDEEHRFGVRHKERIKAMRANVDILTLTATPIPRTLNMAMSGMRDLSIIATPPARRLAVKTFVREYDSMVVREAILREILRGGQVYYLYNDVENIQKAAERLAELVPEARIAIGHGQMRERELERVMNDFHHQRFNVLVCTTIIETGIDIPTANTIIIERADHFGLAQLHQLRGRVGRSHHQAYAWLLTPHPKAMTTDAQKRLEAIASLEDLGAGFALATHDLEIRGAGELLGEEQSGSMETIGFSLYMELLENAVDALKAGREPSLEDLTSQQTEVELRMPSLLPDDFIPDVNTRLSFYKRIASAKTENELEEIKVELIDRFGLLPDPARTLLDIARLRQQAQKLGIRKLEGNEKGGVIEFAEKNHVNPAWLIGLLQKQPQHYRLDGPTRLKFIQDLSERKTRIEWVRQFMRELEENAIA

Structure (SMILES) | target or system | assay | system | conditions | how to read | endpoint | result
CCOC(=O)[C@@H](CCSC)NC(=O)c1ccc(C2CC2)c(Cc2ccc(F)cc2)n1 | CNR2 (Homo sapiens, UniProt P34972) | radioligand binding | – | – | baseline: CB1 over CB2 (human) | Ki ratio | 2
CN(C)S(=O)(=O)c1ccc(S(=O)(=O)N2CCC(n3c(=O)[nH]c4ccccc43)CC2)cc1 | mfd, C-terminal domain (Escherichia coli, UniProt P30958) | phosphate release | – | 3.3 µM, 30 min, with: ATP 0.0024 mM | – | ATPase activity | 0.0282 µM phosphate
O=C(Nc1cnccc1-c1ccc([18F])nc1)c1ccnc(NC(=O)C2CC2)c1 | – | – | mice, transgenic, GSK-3β, early-stage, heart | intravenous, dose not given, 120 min | – | SUV | 0.103
COC1CN([C@H]2CC[C@H]([C@@]3(C)Oc4c(Cl)cc(C(=O)NCc5c(SC)cc(C)[nH]c5=O)c(C)c4O3)CC2)C1 | – | RNA-seq, measured: CKB | human, whole blood | dose not given, 24 h | baseline: pretreatment baseline | log2 fold change | 1.54
CN(C)c1ccc(C2=C/C(=C/C=C/c3sc4ccccc4[n+]3C)c3ccccc3O2)cc1 | T1, G-quadruplex DNA, G-quadruplex (Homo sapiens) | fluorescence turn-on | – | – | – | binding | binds
CCCCCC=CC=C1C(=O)C=CC1CC=CCCCC(=O)O (stereo not shown) | Condensin complex subunit 1 (Homo sapiens, UniProt Q15021) | competitive isoTOP-ABPP, measured: NCAPD2 cysteine peptide | Ramos soluble proteome | 100 µM, with: iodoacetamide probe | baseline: DMSO over compound-treated, higher = stronger cysteine blockade | isoTOP-ABPP competition ratio | 3.3
O=C(O)Cc1cc2c(cc1C(=O)c1cccc(I)c1)OCO2 | Gria2 (Rattus norvegicus, UniProt P19491) | whole-cell patch clamp | HEK-293T | concentration not given, with: glutamate | – | deactivation time constant | 4.3 ± 0.3 ms
Cc1ncsc1-c1ccc(C(C)NC(=O)C2CC(O)CN2C(=O)C(NC(=O)CCCCCCCCCCN2CCCC(Nc3ncc(Cl)c(Nc4ccccc4S(=O)(=O)C(C)C)n3)C2)C(C)(C)C)cc1 (stereo not shown) | 22Rv1 | RNA-seq, measured: RASA3 mRNA | – | concentration not given | baseline: DMSO | log2 fold change | -1.72
CC(=O)N[C@@H](CC(=O)O)C(=O)N[C@@H](Cc1ccc(I)cc1)C(=O)N[C@@H](C)C(=O)N[C@@H](CC(=O)O)C(=O)COC(=O)c1c(C)cccc1C | CASP7 | enzyme activity, inhibitor | – | – | – | kinact/KI | 190000 M⁻¹ s⁻¹
N=C(N)Nc1ccc(CNC(=O)c2cc(-c3ccccc3)n(-c3ccccc3)n2)cc1 | Genome polyprotein, NS2B-NS3 protease (dengue virus type 2, UniProt P29990) | enzyme activity, fluorogenic AMC substrate | – | 50 µM | – | inhibition | 33%
C=C(NC(=O)c1csc(-c2nc3c(cc2O)-c2nc(cs2)C(=O)NC(C(C)O)C(=O)NC(=C(C)OC)c2nc(cs2)C(=O)NC2c4nc(cs4)C(=O)NC(COC(=O)c4c5c6c(cccc6n4O)COC(=O)C(OC4CC(C)(O)C(N(C)C)C(C)O4)C2OC5)c2nc-3cs2)n1)C(N)=O (stereo not shown) | – | – | ICR mice, Streptococcus pneumoniae ATCC 49169 infected, immunocompromised, blood | intravenous, 2 mg/kg twice daily | – | AUC(0-t) | 0.11 µM·h
CC(=O)C12NC(C)(C)CC1(C)C(=O)C1=C2c2c(c3c4n2C(C)(C)CC2=C4C4(CC(C)(C)NC(C)(C4)C2=O)CC3(C)C)C(=O)C(C)(C)N1 (single isomer, unassigned; (+)) | OPRM1 (Homo sapiens, UniProt P35372) | cAMP level, agonist, LANCE Ultra cAMP | CHO | 50 µM | – | activation | 1.59 ± 0.66%
CNS(=O)(=O)Nc1nccc(Cc2c(C)c3ccc(Oc4ncccc4F)cc3oc2=O)c1F | NCI-H358 | cell viability | – | 7 days | – | IC50 | 9.07 nM
CCCCCCCC/C=C\CCCCCCCC(=O)NCCO | Trpv1 (Mus musculus, UniProt Q704Y3, S513A) | ion current, agonist, whole-cell patch clamp | – | – | baseline: 3 mM 2-APB current | maximal open probability | 0.81 ± 0.16
C=CC(=O)Nc1cccc(Cn2ncc3cnc(Nc4cnn(CCOC)c4)nc32)c1 | CDK9 human | binding, KINOMEscan | – | 100 nM | lower = stronger binding | percent of control | 100%
Cc1cc(C)cc(COc2cc3c(cc2OCc2cc(C)cc(C)c2)C2CC(O)(Cc4cn(CCOCCOCCNC(=O)CCCCC5SCC6NC(=O)NC65)nn4)CC(C)N2CC3)c1 (stereo not shown) | Serum paraoxonase/arylesterase 2 (Homo sapiens, UniProt Q15165) | biotinylated probe pull-down, measured: PON2 | – | 10 µM probe | baseline: heavy over light | SILAC ratio | 2.08
C/C1=C\CC/C(C)=C/CC(C)(C)/C=C/C1 | SCN9A (Homo sapiens, UniProt Q15858) | inhibitor, whole-cell patch clamp | HEK293 | 100 µM, 5 min, at -10 mV | – | remaining current | 95 ± 5%
CN(C)c1ccc2c(c1)C(=O)N(CCc1ccc(OS(N)(=O)=O)cc1)C2=O | CA2 (Bos taurus, UniProt P00921) | binding | – | 2 µM, pH 7.2 | baseline: without protein | fluorescence turn-on | 8.3 fold
Cc1ccc(-n2cc(CNC(=O)c3cncc(Br)c3)nn2)cc1 | human kinase panel | binding, KINOMEscan | – | 10000 nM, %Ctrl below 1 | – | number of kinases hit | 0
O=C1C2CC3CC1CC(C(=O)N1CCN(c4ccc([N+](=O)[O-])c5ncccc45)CC1)(C3)C2 | Salmonella typhimurium | Ames test | TA100 | 0.78 µg/well, without S9 | – | mean revertant colonies | 23 colonies/well
CC(=O)N[C@@H](CCC(C)C)C(=O)N[C@H](C(=O)N[C@@H](CO)C(=O)N[C@@H](CC(=O)O)C(=O)COC(=O)c1c(C)cccc1C)C(C)(C)C | CASP7 | enzyme activity, inhibitor | – | – | – | kinact/KI | 600 M⁻¹ s⁻¹
N#CN1CC[C@H](C(=O)Nc2nc3c(s2)CN(C(=O)Cn2cc(CNC(=O)CCCC[C@@H]4SC[C@@H]5NC(=O)N[C@@H]54)nn2)CC3)C1 | Omega-amidase NIT2 (NIT2, Homo sapiens, UniProt Q9NQR4) | probe binding, affinity probe, neutravidin pull-down LC-MS/MS | HEK293T, cell lysate | 5 µM, 1 h, single replicate, unit not given | higher = more pulled down | iBAQ abundance | 2.29e+08 and 2.27e+08 and 5.39e+08
